Measurements of several laboratories.
Every numbered part comes from another study and shows a few of its results, in no order. Changes are numbered by the printed parent chain.

Study 1 — technique: DHFR PCA, deep sequencing; matrix: yeast; added: (+)-ABA 1.4 µM; baseline: wild-type fitted maximum; reading: higher = stronger binding
Target: ABI1, truncated, D143A, DHFR fusion (Arabidopsis thaliana)
Notes: methotrexate growth selection, single substitutions
Starting sequence: PYL1, truncated, DHFR fusion (Arabidopsis thaliana); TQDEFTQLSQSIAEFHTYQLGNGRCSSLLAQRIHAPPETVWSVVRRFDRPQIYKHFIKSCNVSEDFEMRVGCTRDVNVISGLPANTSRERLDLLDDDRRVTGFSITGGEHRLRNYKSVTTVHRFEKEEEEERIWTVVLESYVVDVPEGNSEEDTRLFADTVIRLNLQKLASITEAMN
Variant	relative binding score [%]
A170G	8.51
D65F	11.6
A13Q	41.7
L169W	-0.772
T1R	56.8
S117P	12.7
P146W	-10.7
L28E	3.16
S9M	48.9
S42T	26.4
D97T	59.7
P83H	0.445
P37K	-1.94
L29Y	1.42
V142W	-23
Q10F	9.8
Q10M	59.9
H122D	2.92
V70K	11
E131R	64.8
Q19T	63
D153G	1.44
E67Y	23.3

Study 2 — technique: universal PBM; molecule type: double-stranded DNA, one strand shown; matrix: in vitro; concentration: 600 nM; reading: higher = stronger binding
Target: Sal-like protein 4, full length isoform A (SALL4, Homo sapiens, UniProt Q9UJQ4, residues 1-1053)
Chain of UniProt Q9UJQ4 (whole entry, looked up): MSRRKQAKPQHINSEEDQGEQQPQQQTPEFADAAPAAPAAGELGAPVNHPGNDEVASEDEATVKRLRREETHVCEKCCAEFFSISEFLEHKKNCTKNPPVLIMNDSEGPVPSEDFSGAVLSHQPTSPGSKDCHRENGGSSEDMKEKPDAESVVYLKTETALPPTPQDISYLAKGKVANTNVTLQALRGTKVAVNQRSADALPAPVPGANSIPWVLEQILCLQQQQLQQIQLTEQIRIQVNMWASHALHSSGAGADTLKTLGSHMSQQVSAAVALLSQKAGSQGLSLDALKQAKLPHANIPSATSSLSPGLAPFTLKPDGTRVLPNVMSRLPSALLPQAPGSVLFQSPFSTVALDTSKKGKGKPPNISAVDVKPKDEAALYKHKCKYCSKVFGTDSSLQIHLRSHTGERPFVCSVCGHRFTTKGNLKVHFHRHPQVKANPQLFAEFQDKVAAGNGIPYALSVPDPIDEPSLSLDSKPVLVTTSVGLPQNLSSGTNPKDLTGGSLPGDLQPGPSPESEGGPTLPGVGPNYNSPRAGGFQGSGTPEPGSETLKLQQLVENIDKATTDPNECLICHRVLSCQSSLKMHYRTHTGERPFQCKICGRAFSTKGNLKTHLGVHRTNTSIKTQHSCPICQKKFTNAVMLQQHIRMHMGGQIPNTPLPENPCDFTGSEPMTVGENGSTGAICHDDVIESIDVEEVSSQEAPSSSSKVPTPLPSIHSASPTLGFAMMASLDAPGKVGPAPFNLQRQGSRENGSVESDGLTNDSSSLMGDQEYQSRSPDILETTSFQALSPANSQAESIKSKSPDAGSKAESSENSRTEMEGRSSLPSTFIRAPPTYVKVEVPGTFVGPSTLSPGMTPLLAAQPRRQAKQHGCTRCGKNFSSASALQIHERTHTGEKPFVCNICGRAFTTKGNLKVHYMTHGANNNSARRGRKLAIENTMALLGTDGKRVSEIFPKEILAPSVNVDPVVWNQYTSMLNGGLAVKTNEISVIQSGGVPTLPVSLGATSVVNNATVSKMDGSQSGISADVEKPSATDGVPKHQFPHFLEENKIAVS
Notes: 8-mer, flanks averaged, mean of replicates
Strand	E-score
CCGCCCTC	-0.236
AGGGTTAT	0.151
CGTTCTGA	-0.0974
CGGGTAAC	-0.193
CAGCATCA	0.022
AGAATTCA	0.153
ACCTCTTC	0.0964
AAAAGGAC	0.0132
AGACAGGG	-0.166
TGGAGTAA	0.196
AGCGACGG	-0.286
CAATTAAG	0.153
CATTTGTC	0.202
AAAAACGA	0.268
GGCCGCAA	-0.23
CGTGTCAC	-0.143
ACCAGCAT	-0.0736
CGTGGAGA	-0.0943
CAAGATGG	-0.105
ACTGTCCG	-0.144
AATTGAGA	0.197
CGTGCCCA	-0.124
CATTTCGA	0.101
CAGATGCG	-0.0808
AAGGTGCA	-0.0406

Study 3 — target: CCNA2, cyclin fold, Cln2 fusion (human); technique: yeast growth competition, sequencing; matrix: yeast; notes: strong parent motif; baseline: not given; reading: higher = stronger binding
Starting sequence: SCAPER docking peptide (human); SNARRSLNFGGST; partner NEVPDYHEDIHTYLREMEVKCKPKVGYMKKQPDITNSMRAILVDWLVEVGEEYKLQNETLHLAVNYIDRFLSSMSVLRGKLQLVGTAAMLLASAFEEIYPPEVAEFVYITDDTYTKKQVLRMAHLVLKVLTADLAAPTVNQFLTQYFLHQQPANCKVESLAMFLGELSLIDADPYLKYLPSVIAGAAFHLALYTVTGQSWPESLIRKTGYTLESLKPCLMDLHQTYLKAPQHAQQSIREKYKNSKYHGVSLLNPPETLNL
Variant	normalised enrichment score
A3L	1.66
N2F	5.92
R4P	0.937
L7H	1.05
N8H	5.66
N8V	4.21
L7S	1.03
R5Q	2.52
S1R	6.4
N2A	5.97
N2R	6.56
T13M	5.98
N2C	5.54
N8F	5.55
R4S	2.39
S1H	5.76
G10V	4.81
T13W	5.7
G11Q	6.55

Study 4 — technique: RNA Bind-n-Seq; molecule type: RNA; matrix: in vitro; concentration: 365 nM; baseline: no-protein control; reading: higher = stronger binding
Target: RNA binding protein fox-1 homolog 2, RRM domain, GST-SBP tag (RBFOX2, Homo sapiens, UniProt O43251-10, residues 100-194)
Notes: natural RNA segment, single round, ends assumed
Shared flanks, not repeated: GGGAGUUCUACAGUCCGACGAUC … UGGAAUUCUCGGGUGCCAA
Target sequence (chain): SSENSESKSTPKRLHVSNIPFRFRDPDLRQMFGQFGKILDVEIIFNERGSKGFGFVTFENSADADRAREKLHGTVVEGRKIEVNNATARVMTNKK
Strand	RBNS enrichment (R)
AAUAUCAGUUACUCAGCCCUGGGCCCCACCACCUAGGCCACUCCUCCAAAGGAAGUCUAGGAGCUGGGAGGAAAAGAAAAGAGGGGAAAAUGAGUUUUUAUGGGGCUGAA	0.412
CAUUUCAUGCAAUGACAAAGUGCUCAGUAGUGGAAGGCAGGCUGUGACCAGUCUGCCUGCUCCUUACUAUAAUUGUGAGGAUUUGUUACUGGAACAGUACAUGGAGGCCU	0.479
GCCCCUCCCAAAGCGCCGGCCGACUCGCUGUCUCGCUGGGGACUCUUUCAGCCCUCGCGCCCGCCCGUUUGGGAGGAGAAGUCUCUAUGCAAUUGGCCCCGGCCCCUCCA	0.316
AUCUCAAUUGAAAGCUUUUAAAAUGUAGAAACUUAAACACACCUUCCUGUGGAGGCUGAGAUGAAAACUAGGGCUCAUUUUCCUGACAUUUGUUUAUUUUUUGGAAGAGA	0.387
UUUUUUUUAGAGACAGGAUCUUGCUAUGUUGCCCAGGCUAGAGAGCAGUGGCUUUUCACAGACAAAGUCAUAAUGCCCUGCAGUCUUGGGCUCAAGCGAUUCUCUCUUCC	0.291
AAAUGGAUUCCCUGGCUGAGCCAGUGUCUCUUUCCCACUGUCCUUUCUCCAGGUGUGCAGAUGGCAUGUUAGUGUGGGCACGCUGUUAAGUGGGUAUCCCACCUCCAGCC	1.77
AGUGUGAGUUUUGUCACAUUCUGGGCAGGUAGAGACGUGAAUGCUCUGUGGACCCUCCCCCUCUCCCAACCUAGGCCUGUCUGGCAUGCUGCAAGGACCAGAGCCAGCCC	3.97
CUGCUAUUGAUUAGGUUAUACCUGAGGUACUUAAAAUAUGCAGUAGAAUUAAUGUCUUACUAAAGUGCCACAAUUAUUUUUUAAGUAGCUCAGUACAAAUUAAUUUAAGU	0.55
UGACACCCACAUCCACUUUAGCCAUGUGUGACUCCCUAACAUUCCAAUCCUCUACCAUCCUGCAGCUGAAAUGGGAACACUGGCUGCCUCUCUAAACCUAAACUCUUGGA	0.835
CAGUUUCCCUCCCUUCUCCCUCCAUCCGCAGCCACAGGGGAACUCGUCUCUUACAUACUCUCAUCUUCUCCCCCGCUCCCUUCCACUCCAAGGAGCGAGGAGGGCAAGCG	0.513
CUUGUUUUGGCAGUACUGAAAUCAAAGGAGCUGGUUCUUCUUUUCUCCCAAUUAUUUUCAUAUGAAAGCACCUACAAUUAGCCUGUUAGUCCUAUUCAGAUACAUCAAAU	0.48
UUUGUCUUUUACUUAAGGGUACUAAGCAAGGUCCACUCUAGUGUAGCUGAAGAGAAUGCAUAUUUGGCUACACUAUUUCUGUUUACUGUAUUUUGCUUCCUACUUUAUGU	12.7

Study 5 — technique: protein-binding microarray; molecule type: double-stranded DNA, one strand shown; matrix: in vitro; concentration: 250 nM; notes: 60-bp whole probe; added: salmon DNA 0.4 mg/ml; baseline: random background probes; reading: higher = stronger binding; shared flanks, not repeated: GCCTAGCAC … GTCTTGATTCGCTTGACGCTGCTG
Target: Interferon regulatory factor 7, full length, phosphomimetic (IRF7, Homo sapiens, UniProt Q92985, residues 1-503, S101K/S471D/S472D/S475D/S476D/S477D/S483D/S484D/S487D)
Chain of UniProt Q92985 (whole entry, unmodified, looked up): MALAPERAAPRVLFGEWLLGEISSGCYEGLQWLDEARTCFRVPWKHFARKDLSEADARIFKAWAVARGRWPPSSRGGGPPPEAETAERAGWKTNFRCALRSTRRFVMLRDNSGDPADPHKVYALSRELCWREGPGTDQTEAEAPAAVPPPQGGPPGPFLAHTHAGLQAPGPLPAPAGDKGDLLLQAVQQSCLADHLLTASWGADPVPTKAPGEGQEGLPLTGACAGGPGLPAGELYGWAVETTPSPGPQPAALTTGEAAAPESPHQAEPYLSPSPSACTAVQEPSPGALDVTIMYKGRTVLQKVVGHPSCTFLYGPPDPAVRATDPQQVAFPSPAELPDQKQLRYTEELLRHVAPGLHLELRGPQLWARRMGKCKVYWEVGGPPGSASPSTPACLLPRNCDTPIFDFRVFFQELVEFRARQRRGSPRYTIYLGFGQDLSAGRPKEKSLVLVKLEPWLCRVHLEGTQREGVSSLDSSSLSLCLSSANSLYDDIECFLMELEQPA
Strand	log fluorescence
GGATGAGCAAGGGGGCCTCGGTGCTAG	0.376 z-score
GACGGTTCCGGGTTCGGGACGTGCTAG	2.61 z-score
GACGATTTCAGTTTCGAGTCGTGCTAG	8.65 z-score
TCATGTATGAGCCTCTGACTGTGCTAG	-0.336 z-score
TTAGATTCAAGTTTCGATTAGTGCTAG	9.46 z-score
GACGGTCTGGGACTGGGGACGTGCTAG	-0.49 z-score
TTAGGTTTCGGGACTGGGCTAGTGCTA	3.24 z-score
TGTAGAGTAGCTTTCTGAGGGTGCTAG	-0.921 z-score
GTCGAACTGAGACTGGAGACGTGCTAG	0.129 z-score
TTAGGTTTCGAACTGGGTTAGTGCTAG	4.35 z-score
TCATTTTCCTAATTGAAACTGTGCTAG	3.69 z-score
TTAGGTTTCGACTATTGGTTAGTGCTA	4.62 z-score
CTAGCTTCCATTTTCTGAACGTGCTAG	1.15 z-score
GACGAACTGGGGACTCGAGACGTGCTA	-0.00146 z-score
TTAGGACTGGGAACTGGGTTAGTGCTA	-0.387 z-score
GACGGTCTCCCACTGCTGACGTGCTAG	-0.31 z-score
TACGGTATCGGTTTCGGGACGTGCTAG	6.93 z-score
TTAGATTCCAGTTTCGATCAGTGCTAG	6.37 z-score
TTAGGACTGGACACGGGGTTAGTGCTA	-0.263 z-score

Study 6 — technique: aptamer microarray, sandwich; molecule type: DNA with 2'F-ANA; matrix: in vitro; concentration: 200 nM; added: Cy3 exosite-II aptamer, 400 nM; reading: higher = stronger binding; strand: GGTTGGTGTGGTTGG
Target: Prothrombin, mature alpha-thrombin (F2, Homo sapiens, UniProt P00734)
Notes: whole 15-mer aptamer, many near background
Modification	mean fluorescence intensity [a.u.]
2'F-ANA at 5 8 9 12 13 14	47.6
2'F-ANA at 4 5 7 9 15	64.2
2'F-ANA at 1 4 5 6 10 12 15	50.7
2'F-ANA at 2 5 7 8 9 10 11 15	50.5
2'F-ANA at 1 3 6 7 10 12 13 15	102
2'F-ANA at 1 2 5 7 8 12 14	47
2'F-ANA at 1 3 4 11 13 15	138
2'F-ANA at 1 3 6 7 8 10 15	86.3
2'F-ANA at 5 9 11 14	43.9
2'F-ANA at 1 2 3 4 7 10 11 12 15	71.3
2'F-ANA at 3 4 6 9 13	429
2'F-ANA at 3 4 5 7 11 13 14 15	51.3
2'F-ANA at 1 2 3 4 5 6 8 9 10 12	59.7
2'F-ANA at 9 10 12 13 14 15	121
2'F-ANA at 2 6 8 11	355
2'F-ANA at 3 4 5 7 8 10 11 13 15	109
2'F-ANA at 1 4 6 9 10 12 13	51.2
2'F-ANA at 2 3 6 8 9 10 11 12 13 15	321
2'F-ANA at 1 2 3 5 6 7 8 11 13 15	53.1
